Assay results of several laboratories.
Each numbered part is a random draw from the data of one study; scales do not carry over between parts.

Study 1 — method: protein-binding microarray; molecule type: double-stranded DNA, one strand shown; matrix: in vitro; tested at: 940 nM top; notes: 60-bp whole probe; together with: salmon DNA 0.4 mg/ml; baseline: random background probes; reading: higher = stronger binding; constant ends, left off below: GCCTAGCAC … GTCTTGATTCGCTTGACGCTGCTG
Target: Interferon regulatory factor 5, full length, phosphomimetic (IRF5, Homo sapiens, UniProt Q13568-2, residues 1-514, S451D/S453D/S456D/S462D)
Oligonucleotide	fitted relative affinity
GACGGTATCCTTCTCCTGAAGTGCTAG	0.268 z-score
GACGGTATCGGGTTTCGGGTCGTGCTA	7.32 z-score
TACGGTCTCCTTTTCCTGACGTGCTAG	0.584 z-score
TTAGATTTCGTGTTTCGATTAGTGCTA	3.14 z-score
GACGATATCATTCTCGAGACGTGCTAG	1.02 z-score
TTAGGTTTCCTTTTCCTTAAGTGCTAG	2.71 z-score
GACGGTCTCGGTTTCGGGGCGTGCTAG	6.34 z-score
ATGACCTCACTGCCTGACACGTGCTAG	-0.0981 z-score
GACGGACTGCTTAGCCTGACGTGCTAG	-0.68 z-score
TTTGGTTTCGGGACTGGGTTAGTGCTA	10.5 z-score
GGCTGTTTGGCCCTGAACCTGTGCTAG	-0.504 z-score
TTTTCTCTTATTCTAACAGCGTGCTAG	2.08 z-score
GACGGTATCCTTATCCTTACGTGCTAG	0.384 z-score
TGGACTGTGTGTTTGAGTCTGTGCTAG	-0.122 z-score
GACTGTTTCGGGTTTCGGGACGTGCTA	4.81 z-score
TCATTATTTTTTTTATTACTGTGCTAG	1.6 z-score

Study 2 — method: RNA Bind-n-Seq; molecule type: RNA; matrix: in vitro; tested at: 200 nM; notes: whole 134-nt RNA, ends assumed; together with: 150 mM LiCl; baseline: input library; reading: higher = stronger binding; library: 7-deaza-guanosine replaces G
Target: Fragile X messenger ribonucleoprotein 1, C-terminal low-complexity region (Fmr1, Mus musculus, UniProt P35922)
Constant ends, left off below: GGGAGUUCUACAGUCCGACGAUC … UGGAAUUCUCGGGUGUCAAGG
Oligonucleotide	log2 enrichment
UCCUGUGCUACACAUCGUAUGUACCGAAUCGGGGUUUUUGGGUUUUUGGGGUUUUUGGGGAAAGUAUUAUGUUACGCCGUUCGGAUCUGC	-1.24
AUUUUUUGUAUCAAGUCCCUGAAUGGAAGUAUGACGUUGGGUCCCUCUGAAGUUUAAUUCUGAGUUCUCAUUAAAAGAAAUUUGCUUUCA	-2.39
UGGCCCUGGUGGCAUGCGGGGAGGAAGAGGUGGCCUCAUGGAUCGUGGUGGUCCCGGUGGAAUGUUCAGAGGUGGCCGUGGCGGAGACAG	-0.501
AAGUCCUGUGCUACACAUCGUAUGUACCGAAUCGGGUUUGGGUUUUUGGGUUUGGGAAAGUAUUAUGUUACGCCGUUCGGAUCUGCACUU	-1.83
UCCUGUGCUACACAUCGUAUGUACCGAAUCGGGUUUUUUGGGUUUUUUGGGUUUUUUGGGAAAGUAUUAUGUUACGCCGUUCGGAUCUGC	-0.569
UGGGAGGUGGAUUUUGUUUAUUUUUUUAGCUCAUUUCCAGUGGUGGGAAUUUUUUUUUAAUAUGUGUCAUGAAUAAAGUUGUUUUUGAAA	-0.441
CUCAAGUCCUGUGCUACACAUCGUAUGUACCGAAUCGGAAAAAGGUGGUUUGGAAAGUAUUAUGUUACGCCGUUCGGAUCUGCACUUCCA	-0.697
GCAGGAAGUAAAAACAAAUGGAAAUGCUUCGGAUAGUGGCAGGGGUGGGGGUUGCUAAAAAAAGGGUGGGAUGGGAGUGGGUAAAGAGUU	1.59
AGUCCUGUGCUACACAUCGUAUGUACCGAAUCGGGCCCCCGGGGCCCCCGGCCCCCGGAAAGUAUUAUGUUACGCCGUUCGGAUCUGCAC	-1.84
UCCUGUGCUACACAUCGUAUGUACCGAAUCGGGCCCCCGGGGCCCCCGGGGCCCCCGGGGAAAGUAUUAUGUUACGCCGUUCGGAUCUGC	-1.75
ACCAUGCAGGUGGGCAUCUUUGUGAAGUGGGGCAAGGGGGGGAUAGGGAGGGGGGUAACACUUUGGGAACAGGUGGUCCCAGGUCGUUUC	1.21

Study 3 — method: protein binding microarray; molecule type: double-stranded DNA, one strand shown; matrix: in vitro; tested at: not given; baseline: not given; reading: higher = stronger binding
Target: Histone acetyltransferase KAT6A, winged helix 2, GST fusion (KAT6A, Homo sapiens, UniProt Q92794, residues 85-181)
Notes: 8-mer, flanks averaged, mean of 2 arrays, mostly near background
Target sequence (chain): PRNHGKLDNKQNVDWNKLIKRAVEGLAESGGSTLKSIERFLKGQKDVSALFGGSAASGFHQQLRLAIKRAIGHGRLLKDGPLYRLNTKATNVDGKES
Oligonucleotide	E-score
AAATAGTC	-0.142
CATCGGAG	0.0127
CGCGATAA	0.00537
CGAAGACG	0.0301
TACTAGTA	0.114
ATCTCTGC	-0.0109
AGTGGCTG	0.0437
TACCTGAA	-0.00017
CGATCAGA	0.0289
GGCGGGTA	0.122
AGACATAA	-0.135
ATTGGAAG	-0.0555
CGCGTTAC	-0.0664
CCATCCAA	0.0698
TGCAGCAA	0.0707
AGTCGAAC	-0.05
GAAATTAA	0.257
GCACAACA	-0.0715
AGACCCCA	-0.109
CACGCGCA	0.108
AGTCCTTC	-0.172
ATGAAGAA	0.0287
AACATCGA	-0.0861
AGATCTGG	-0.0475
AAACGATG	-0.0783

Study 4 — method: RNA Bind-n-Seq; molecule type: RNA; matrix: in vitro; tested at: 365 nM; baseline: no-protein control; reading: higher = stronger binding
Target: RNA binding protein fox-1 homolog 2, RRM domain, GST-SBP tag (RBFOX2, Homo sapiens, UniProt O43251-10, residues 100-194)
Notes: natural RNA segment, single round, ends assumed
Constant ends, left off below: GGGAGUUCUACAGUCCGACGAUC … UGGAAUUCUCGGGUGCCAA
Residues (chain): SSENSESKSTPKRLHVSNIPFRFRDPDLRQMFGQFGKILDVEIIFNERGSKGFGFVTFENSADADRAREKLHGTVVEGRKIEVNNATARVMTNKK
Oligonucleotide	RBNS enrichment (R)
UUUGUACUCCCAAUAACCUGAAGAUUCCAUGUAACUCUUAUGUACGCGCAUGAAUACUUUAAAUGCCAACCUUUUCAAUCAUUUGAUAAAGUCUUUGUAGUCACUCAGUC	0.359
GGAUCAGGAGUUCAAGGUCAUCCUUGGCUACAUAGGGGGUUCAAAGCCAGCCUGGGCCCAAUGAAACCUGGUCUCAAGAGAACAAAACCAAACCAAUCAAAUAUGGUCCU	0.321
AAGGUAAGGCGGGGAGUGACUGAAUAAACUCUGCCUUUUAAAUUGAGCAUCUGGGCCGGGCAUGGUGGCUCACGCCUGUAAUCCCAGCACUCUGGGAGGUCGAGGUGGGU	5.37
CUGGCCUGGCCAGCAGUCUGCAUGCUGAAGCUGCACCAAAGACAAGCGAAUGGGUCAUUUCUAAAGAGACCAGGGAGCCCACUCCUCAUGGGCUCUCCGUGGUGAAGAAC	13.8
UCUUCUGGUGAGACAUCCUCUGUCCCGGGUCCCAUUUCCCCACCUGUAACUGAGGUUAGGAAAAGAUGUGCCCUUCCUUCCUCCCAGCCUUUCUCCCCUCUGCUUCCUCA	0.546
UAGCUUUGGUUUAAUAUGCCACUGCUUUGUCUUUCUGUUACACAUACAGUUUUGAUUUAUUUACAAUAUAUGCUGUGCCAUUUUGAUUUUUAUAUUGUUUGGUUGGUUGA	0.581
AUACACAGAUGUUCUAUCUAGAACAUUUCCAUUGCAACAGCUAAGUUUGUGUUUCGUGGUUUUUUUAUGUUUUGUUUGUUUUUUGAAAAUGAGAGAAGAGUUGGAGAUAU	1.79
CUUCGCAGCUACAGCACAUCUAUUUUUAAUAUUGUGCUGAGCAAGACAGAUCGCUUGCAUAUUUUUAAAAAUUUCUACUACAGAGACAUUCCAAUAAACUCGUUAAGCCU	0.432
GUUGUAUUGCUUUGCACAAAAUUAGGAACAGGUGUUUGACAAUUGAAUUUGUUUUCUGUGAAUUCUAACCUCUAAAGGCAUGCUUAGAGGUCAAGGACCUUCCUGUGUAG	16.8
GGAAGUCUCAGAACCAGGAAGGAAACCCUGUGGAGGCUGCCCUUUGACCUUUGGACGCCACCUGUAAUCACUCUGGAUGGUGUCUGUGGAGUUCAGGUUUAUUUUCUAUU	0.31
GUGAACGCUAAGAAGUUUCAGACAAGCAGAGAGCUCUAUUUUUAGAAGAAAUAUGUUACACUCAGAAAUGAUGAAACCAAAUCUUAUAUUAAAAGGCAAAGAUGACGGAG	0.443
AUUCCUAUGGAGCAGUGGUGUUCCAAAUUCUCCAUUACCUCUAUGCCUAAUAUUCAUCAGCCUUCAUUACUCUCUAGCAUAUUCACCUUGAUUCAACAGAUUCAAACUUC	0.355
